Measured values of several laboratories.
Numbered parts are unrelated; each lists some results of a single study. Substitutions count along the parent as printed.

Set 1
Target: vanadate, free oxyanion
Method: microfluidic competitive inhibition
Medium: in vitro, cell-free expressed
Concentration: not given
Setting: derived from inhibition constants, unchanged parent 676 nM
Reading: lower = stronger binding
Measurement: oxyanion analog dissociation constant
Starting sequence: PafA, mature enzyme, eGFP fusion (Elizabethkingia meningoseptica, UniProt Q9KJX5); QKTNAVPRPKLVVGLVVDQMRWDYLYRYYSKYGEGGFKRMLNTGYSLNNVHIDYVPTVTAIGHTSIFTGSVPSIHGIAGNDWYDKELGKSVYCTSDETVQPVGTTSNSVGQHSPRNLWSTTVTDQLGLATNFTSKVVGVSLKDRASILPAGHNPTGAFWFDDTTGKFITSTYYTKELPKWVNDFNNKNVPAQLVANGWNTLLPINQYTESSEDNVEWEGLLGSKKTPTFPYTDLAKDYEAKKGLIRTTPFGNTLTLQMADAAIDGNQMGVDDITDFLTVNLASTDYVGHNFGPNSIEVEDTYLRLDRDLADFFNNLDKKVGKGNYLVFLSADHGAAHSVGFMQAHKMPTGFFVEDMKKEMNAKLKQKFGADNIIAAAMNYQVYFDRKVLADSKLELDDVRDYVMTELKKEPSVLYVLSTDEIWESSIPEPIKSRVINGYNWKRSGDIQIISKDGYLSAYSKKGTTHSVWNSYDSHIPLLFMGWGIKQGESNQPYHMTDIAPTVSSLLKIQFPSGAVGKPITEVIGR
D96V: 3.94 µM
E429G: 674 nM
N153V: 761 nM
Q366G: 744 nM
K2G: 703 nM

Set 2
Target: CCNE2, cyclin fold, Cln2 fusion (human)
Method: yeast growth competition, sequencing
Medium: yeast
Setting: weak parent motif
Reference: not given
Reading: higher = stronger binding
Measurement: normalised enrichment score
Starting sequence: viral docking peptide; PTARRRLLHDLDT; partner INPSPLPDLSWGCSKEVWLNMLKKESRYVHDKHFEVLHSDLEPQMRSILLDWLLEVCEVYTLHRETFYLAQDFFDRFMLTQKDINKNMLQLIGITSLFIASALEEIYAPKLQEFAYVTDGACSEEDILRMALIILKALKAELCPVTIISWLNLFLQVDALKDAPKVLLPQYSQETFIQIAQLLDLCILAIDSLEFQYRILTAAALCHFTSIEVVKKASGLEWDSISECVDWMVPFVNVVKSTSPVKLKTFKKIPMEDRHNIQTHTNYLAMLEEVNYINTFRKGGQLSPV
L8A: -0.217
T2A: 0.499
L7A: 0.189
D10A: 0.668
L8F: 5.52
T13A: 0.577
R5K L8F: 2.24
P1A: 0.518

Set 3
Target: Histone acetyltransferase KAT6A, winged helix 1, GST fusion (KAT6A, Homo sapiens, UniProt Q92794, residues 1-85)
Method: protein binding microarray
Form: double-stranded DNA, one strand shown
Medium: in vitro
Concentration: not given
Setting: 8-mer, flanks averaged, mean of 2 arrays, mostly near background
Reference: not given
Reading: higher = stronger binding
Measurement: E-score
Residues (chain): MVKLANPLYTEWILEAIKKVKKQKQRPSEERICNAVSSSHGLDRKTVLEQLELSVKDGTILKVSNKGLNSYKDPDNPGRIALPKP
AGCAATGA: -0.276
CCCGTGCC: 0.305
ATAGCAAT: -0.305
CATGACTC: -0.204
ATCAGCGA: 0.0919
ATGCACGA: -0.0753
ACTGGCGC: 0.188
GCATAGAA: -0.124

Set 4
Target: CRIPT, C-terminal peptide
Method: DHFR complementation, deep sequencing
Medium: yeast
Setting: single substitutions, model-inferred values
Reference: wild type
Reading: higher = weaker binding
Measurement: binding free energy change
Starting sequence: ERBIN, PDZ domain 1 (human); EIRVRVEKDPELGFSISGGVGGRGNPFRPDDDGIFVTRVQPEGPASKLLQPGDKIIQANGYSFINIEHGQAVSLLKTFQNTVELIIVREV; partner TKNYKQTSV
I2D: 1.37 kcal/mol
G19K: 1.68 kcal/mol
S73R: 0.0643 kcal/mol
G43F: 0.903 kcal/mol
L74F: -0.0144 kcal/mol
G52H: 0.94 kcal/mol
L12M: 0.0815 kcal/mol
T37P: 0.223 kcal/mol
